Experimental data from different studies.
Compare with care: the assays were run in different laboratories. Values joined by “and” are separate records of one study, mostly repeats; a detail may differ. ± gives the spread as reported.
MAPK8: Mitogen-activated protein kinase 8 (MAPK8, Homo sapiens, UniProt P45983)

The binding stoichiometry of O=C(O)C1OC(OC2C(C(=O)O)OC(OC3C(C(=O)O)OC(OC4C(C(=O)O)OC(OC5C(C(=O)O)OC(O)C(O)C5O)C(O)C4O)C(O)C3O)C(O)C2O)C(O)C(O)C1O (stereo not shown) is reported as 3.2 (Beta-lactoglobulin (LGB, Bos taurus, UniProt P02754, A134V/G80D); isothermal titration calorimetry; concentration not given, pH 4.00, 37 °C, 50 mM KH2PO4; ligand per protein).
The fold change of CCCCCCCC/C=C\CCCCCCCC(=O)OCC(O)COP(=O)(O)O (stereo not shown) is reported as 0.648 and 0.669 and 0.672 and 0.698 and 0.634 and 0.707 (LPAR1 (Homo sapiens, UniProt Q92633); G-protein dissociation, agonist, NanoBiT; HEK-293T; 1 µM, wild-type receptor; relative to: baseline luminescence).
The inhibition of Cc1cc(=O)oc2cc(O[C@@H]3O[C@H](CO)[C@H](O)[C@H](O)[C@H]3O)ccc12 is reported as 19.7 ± 4.2% (Adhesin FmlH, lectin domain (Escherichia coli, UniProt Q1RBS0); binding to desialylated mucin, ELISA competition; UPEC UTI89; 10 µM, with: desialylated bovine submaxillary mucin).
CN(C)c1ccc(-n2cc(COC(=O)[C@@]3(C)C=C(C(=O)OC(C)(C)C)C(=O)CC3)nn2)cc1 has a fraction bound of 0.222 (MAPK8; D-peptide binding, inhibitor, FP peptide displacement; 200 µM; lower is stronger displacement).
CCCCCC=CC=C1C(=O)C=CC1CC=CCCCC(=O)O (stereo not shown) — result for “isoTOP-ABPP competition ratio”: 6.1 (TBC1 domain family member 13 (TBC1D13, Homo sapiens, UniProt Q9NVG8); competitive isoTOP-ABPP; proteome, soluble, MDA-MB-231; 100 µM, 60 min, with: iodoacetamide probe; relative to: DMSO over compound-treated, higher = stronger cysteine blockade).
CCOC(=O)C(CC)(CCCSCCOCCOCCN=[N+]=[N-])NC(=O)c1ccc(C2CC2)c(Cc2ccc(F)cc2)n1 (stereo not shown) gave an Emax of 93% (Cnr2 (Mus musculus, UniProt P47936); cAMP, agonist).
With C=C1CC2(C(=O)OC)C=C(C(=O)OC(C)(C)C)C(=O)C1C2 (stereo not shown) the fraction bound was 0.893 (MAPK8; D-peptide binding, inhibitor, FP peptide displacement; 7.812 µM; lower is stronger displacement).
C#CC[C@H](NC(=O)c1ccc(C(=O)c2ccccc2)cc1)C(=O)NCCCCCC(=O)N[C@@H](CCCCNC(=O)CSCCNC(=O)CCNC(=O)[C@H](O)C(C)(C)COP(=O)(O)OP(=O)(O)OC[C@H]1O[C@@H](n2cnc3c(N)ncnc32)[C@H](O)[C@@H]1OP(=O)(O)O)C(N)=O has an enrichment ratio of 2.2 (Elongation factor 2 (EEF2, Homo sapiens, UniProt P13639); affinity enrichment LC-MS/MS; HEK293 cell extract, PCAF transfected; relative to: 1 over empty vector).
N=C(N)NCCS(=O)(=O)O: “normalised MST signal” 0.025 (SLC6A6 (Homo sapiens, UniProt P31641, G62A); binding, microscale thermophoresis; 31.3 µM, room temperature, with: 50 nM labelled protein; higher = more binding).
COc1cc(Nc2nccc(-c3cnn4nc(OC)ccc34)n2)cc(C(F)(F)F)c1 has a remaining binding of 93% (Tyrosine-protein kinase ABL1, non-phosphorylated (ABL1, Homo sapiens, UniProt P00519, Q252H); binding; 1 µM).
For CC[C@H](C)[C@@H](C(=O)N[C@@H](CC(C)C)C(=O)N[C@@H](CO)C(=O)N[C@@H](CO)C(=O)N[C@H](C(=O)N[C@@H](CC(N)=O)C(=O)N[C@H](C(=O)NCC(=O)N[C@@H](CO)C(=O)N[C@@H](CC(N)=O)C(=O)N[C@H](C(=O)N1CCC[C@H]1C(N)=O)[C@@H](C)O)C(C)C)[C@@H](C)O)N(C)C(=O)[C@H](C)NC(=O)CN(C)C(=O)[C@H](Cc1ccccc1)NC(=O)[C@H](CC(N)=O)NC(=O)[C@H](CC(N)=O)NC(=O)[C@H](CO)NC(=O)[C@H](CO)NC(=O)[C@H](CCCNC(=N)N)NC(=O)[C@H](Cc1c[nH]cn1)NC(=O)[C@H](CC(C)C)NC(=O)[C@H](Cc1ccccc1)NC(=O)[C@H](CCC(=O)O)NC(=O)[C@H](C)NC(=O)[C@H](CC(C)C)NC(=O)[C@H](CCCNC(=N)N)NC(=O)[C@H](CCC(N)=O)NC(=O)[C@@H](NC(=O)[C@H](C)NC(=O)[C@@H]1CSSC[C@H](NC(=O)[C@H](CCCNC(=N)N)NC(=O)CC[C@H](NC(=O)CCCCCCCCCCCCCCCCCCC(=O)O)C(=O)O)C(=O)N[C@@H](CC(N)=O)C(=O)N[C@@H]([C@@H](C)O)C(=O)N[C@@H](C)C(=O)N[C@@H]([C@@H](C)O)C(=O)N1)[C@@H](C)O, the potency increase was 3 to 4 fold (Amylin receptor AMY3; CALCR/RAMP3 (Homo sapiens, UniProt O60896+P30988); cAMP accumulation, agonist; COS-7; relative to: over native Tyr37 analogue).
For O=C1c2sc(-c3ccc(N4CCC(F)C4)nc3F)nc2CCN1c1cccnc1 (stereo not shown), the specific binding was 69.6 nM (TAR DNA-binding protein 43, aggregated (TARDBP, Homo sapiens, UniProt Q13148); saturation autoradiography; human, FTLD-TDP type A brain sections; 4.87 nM).
The remaining activity of CN(Cc1cc(C2CC2)on1)C(=O)c1cccc(-c2ccc3c(c2)CCO3)c1 is reported as 106% (acetoacetyl-CoA synthetase (Cryptococcus neoformans); enzyme activity, inhibitor; 3.91 µM).

A few entries again:
The fold change of CCCCCCCC/C=C\CCCCCCCC(=O)OCC(O)COP(=O)(O)O (stereo not shown) is reported as 0.648 and 0.669 and 0.672 and 0.698 and 0.634 and 0.707 (LPAR1 (Homo sapiens, UniProt Q92633); G-protein dissociation, agonist, NanoBiT; HEK-293T; 1 µM, wild-type receptor; relative to: baseline luminescence).
The inhibition of Cc1cc(=O)oc2cc(O[C@@H]3O[C@H](CO)[C@H](O)[C@H](O)[C@H]3O)ccc12 is reported as 19.7 ± 4.2% (Adhesin FmlH, lectin domain (Escherichia coli, UniProt Q1RBS0); binding to desialylated mucin, ELISA competition; UPEC UTI89; 10 µM, with: desialylated bovine submaxillary mucin).
